Results gathered from unrelated publications.
Each line is one published result; not all experiments were run side by side. “And” joins repeats or separate records; there may be more than shown. ± gives the spread as reported.

The spleen weight of `CCCCCCC(CSS(=O)(=O)O)NCC(C)C` (centres unmarked) is reported as 0.7 g (Swiss Webster mice, Schistosoma mansoni-infected; 100 mg/kg, perfusion day 62 post-infection).
For `O=Cn1nnc2ccccc21`, “pseudo-first-order rate constant” read 0 h⁻¹ (HPLC-MS; pH 10.2, with: 50 mM N-α-acetyl-lysine).
The tumour volume of `COc1cnc2cccc(N3CCc4c(cc(Cn5ccnc5)cc4-c4cn(C)nc4C(F)(F)F)C3=O)c2c1` is reported as 160 mm3 and 98 mm3 and 89 mm3 and 125 mm3 and 105 mm3 (BALB/c nude mice, MV4-11 xenograft; intraperitoneal, 100 mg/kg, day 21).
`CCC(CC)n1c(Cc2cccs2)nc2cc(C(=O)NC(CC(=O)O)CC(C)C)ccc21` (centres unmarked) — result for body weight: “decreased” (mouse, HFpEF model (HFD plus L-NAME); ip, 20 mg/kg/day, 2 wk).
`COCCOCCOCCNC(=O)Cc1cc(CC(=O)N[C@H]2C[C@H]3C(=O)Nc4cc(OCCOCCOCCOC)cc(n4)C(=O)N4CCC[C@H]4C(=O)Nc4cc(OCCOCCOCCOC)cc(n4)C(=O)N4CCC[C@H]4C(=O)Nc4cc(OCCOCCOCCOC)cc(n4)C(=O)N3C2)cc(CC(=O)N[C@H]2C[C@H]3C(=O)Nc4cc(OCCOCCOCCOC)cc(n4)C(=O)N4CCC[C@H]4C(=O)Nc4cc(OCCOCCOCCOC)cc(n4)C(=O)N4CCC[C@H]4C(=O)Nc4cc(OCCOCCOCCOC)cc(n4)C(=O)N3C2)c1` gave a ΔG of -27.6 ± 0.1 kJ/mol (anion binding, ITC; water/methanol 70 vol% (84.0 mol%); 298 K, with: sodium sulfate).
For `COc1ccc(S(=O)(=O)N2CCc3ccccc3C2)cc1N1CCN(C(=O)c2ccc(F)cc2C(F)(F)F)CC1`, “TH-immunoreactive cell count ratio” read 15.4 ± 1.9 (CNN cell counting; rat, 6-OHDA lesioned, substantia nigra pars compacta; 0.3 µg/24 h, 12 weeks post lesion; baseline: lesioned over intact side).
The APTT prolongation of `COC1OC(C)C(OS(=O)(=O)O)C(OC2OC(C)C(OS(=O)(=O)O)C(OC3OC(C)C(OS(=O)(=O)O)C(OC4OC(C)C(OS(=O)(=O)O)C(OC5OC(C)C(OS(=O)(=O)O)C(OC6OC(C)C(OS(=O)(=O)O)C(OC7OC(C)C(OS(=O)(=O)O)C(OC8OC(C)C(OS(=O)(=O)O)C(OC9OC(C)C(OS(=O)(=O)O)C(OC%10OC(C)C(OS(=O)(=O)O)C(OC%11OC(C)C(OS(=O)(=O)O)C(OS(=O)(=O)O)C%11O)C%10O)C9O)C8O)C7O)C6O)C5O)C4O)C3O)C2O)C1O` (centres unmarked) is reported as 1.4 fold (human plasma; 128 µg/mL; baseline: control).
Under “OC+ thioflavin S- area”, `CCCCCCCCCCCCCCCC(=O)OCC(CSC[C@H](N)C(=O)N[C@@H](CO)C(=O)N[C@@H](CCCCN)C(=O)N[C@@H](CCCCN)C(=O)N[C@@H](CCCCN)C(=O)N[C@@H](CCCCN)C(=O)NCCCCCC(=O)N[C@@H](CCCCN)C(=O)N[C@@H](CC(C)C)C(=O)N[C@H](C(=O)N[C@@H](Cc1ccccc1)C(=O)N[C@@H](Cc1ccccc1)C(=O)N[C@@H](Cc1ccc2ccccc2c1)C(=O)O)C(C)C)OC(=O)CCCCCCCCCCCCCCC` (some centres unmarked) is recorded as 1.06% and 3.92% and 2.81% (OC antibody staining, measured: amyloid-beta oligomer; APP/PS1 transgenic mouse, cortex; intracortical injection, dose not given).
`CN1CCC(N[C@@H]2CCc3[nH]c4c(C(N)=O)ccc(-c5ccccc5Cl)c4c3C2)CC1` gave an IC50 of 3.12 nM (organoid viability, CellTiter-Glo 3D; sample A colorectal cancer organoid, human; 6 days).
`Oc1cc2c(cc1O)C(c1ccc3[nH]ccc3c1)NCC2` (centres unmarked) has a Fe2+ chelation of 92 ± 1.17% (ferrozine; cell-free; 100 µM, DMSO solvent).
The amount of `COc1cc(O)ccc1CCC(c1ccc(O)cc1)c1cc2c(c(C)c1O)OC(c1ccc(O)cc1)CC2` (mixture of isomers) is reported as 598 ± 167 pg/mL blood (measured: 17-HDHA; human whole blood; 30 µM, with: Escherichia coli).
The APTT prolongation of `COC1OC(C)C(OC2OC(C)C(OS(=O)(=O)O)C(OC3OC(C)C(OC4OC(C)C(OS(=O)(=O)O)C(OS(=O)(=O)O)C4OS(=O)(=O)O)C(OS(=O)(=O)O)C3OS(=O)(=O)O)C2OS(=O)(=O)O)C(OS(=O)(=O)O)C1OS(=O)(=O)O` (centres unmarked) is reported as 1 fold (human plasma; 128 µg/mL; baseline: control).
`COc1ccc(C(=O)CCc2cc(C(CCc3ccc(O)cc3OC)c3ccc(O)cc3)c(O)cc2OC)cc1` (racemic) — result for “arachidonic acid level”: 123000 ± 20500 pg/mL (human blood; 3 µM, with: A23187).
The IOP of `NC[C@@H](C(=O)Nc1ccc(-c2cn[nH]c2)cc1)c1ccccc1` is reported as 35.2 mmHg (tonometry; NZW rabbit, magnetic bead-induced ocular hypertension; ocular, 0.03%, 24 h).
For `CCCCCc1ccc(S(=O)(=O)N2CC2C(=O)OC)cc1` (centres unmarked), the tumour volume was 335 mm3 (mouse, Lewis lung carcinoma; intraperitoneal, 5 mg/kg, 16 doses, day 13).
`COc1ccc(NC(=O)c2ccc3[nH]c(-c4ccc(N(C)C)cc4)nc3c2)cn1` has a tumour volume of 393 mm3 and 406 mm3 and 528 mm3 and 321 mm3 (Lewis lung carcinoma, mice, syngeneic graft, subcutaneous; intraperitoneal, 50 mg/kg daily, day 10).
For `CN1CCC[C@]1(C)/C=C/S(=O)(=O)NC(=O)Nc1c2c(cc3c1CCC3)CCC2`, the IL-1β inhibition was 99.4% (human, whole blood ex vivo; 50 mg twice daily, day 14, 3 h, multiple ascending dose, with: LPS and ATP).
`Nc1ncc(-c2cc(-c3cnn(CC(F)(F)F)c3)ncc2F)nc1C(=O)NC1CNCC(F)C1` (centres unmarked) gave a remaining binding of 50% (CHEK1; KINOMEscan; 1 µM; baseline: control).
`CC(CCC(=O)NCc1ccc(C(=O)NO)cc1)C1CCC2C3C(O)CC4CC(O)CCC4(C)C3CCC12C` (centres unmarked) has a relative abundance of 1.77% (measured: UDCA; PCK rat (Pkhd1 mutant), peripheral blood; oral gavage, dose not given, 5 months; baseline: total bile acids).
Under lean mass, `CC(C)C[C@H](NC(=O)CNC(=O)[C@H](CCC(N)=O)NC(=O)[C@H](CC(C)C)NC(=O)[C@H](CC(C)C)NC(=O)[C@H](CCCNC(=N)N)NC(=O)[C@H](CCC(N)=O)NC(=O)[C@H](CC(C)C)NC(=O)[C@H](CCCNC(=N)N)NC(=O)[C@H](C)NC(=O)CNC(=O)[C@H](CCC(=O)O)NC(=O)[C@H](CCCNC(=N)N)NC(=O)[C@H](CC(C)C)NC(=O)[C@H](CCCNC(=N)N)NC(=O)[C@H](CO)NC(=O)[C@H](CC(C)C)NC(=O)[C@H](CCC(=O)O)NC(=O)[C@H](CO)NC(=O)[C@@H](NC(=O)[C@H](Cc1ccccc1)NC(=O)[C@@H](NC(=O)CNC(=O)[C@H](CC(=O)O)NC(=O)C(C)(C)NC(=O)[C@@H](N)Cc1c[nH]cn1)[C@@H](C)O)[C@@H](C)O)C(=O)N[C@@H](CC(C)C)C(=O)N[C@@H](CCC(N)=O)C(=O)NCC(=O)N[C@@H](CC(C)C)C(=O)N[C@H](C(=O)NCC(=O)N[C@@H](CCCCNC(=O)COCCOCCNC(=O)COCCOCCNC(=O)CC[C@H](NC(=O)CCCCCCCCCCCCCCCCC(=O)O)C(=O)O)C(N)=O)C(C)C` is recorded as “no effect” (DIO C57BL/6J mice; sc, 300 nmol/kg twice daily, day 8).
For `CNS(=O)(=O)Nc1nccc(Cc2c(C)c3ccc(Oc4ncccc4F)cc3oc2=O)c1F`, the IC50 was greater than 1000 nM (DB; cell viability, CellTiter-Glo; 7 days).
For `COC1OC(C)C(OC2OC(C)C(OS(=O)(=O)O)C(OC3OC(C)C(OC4OC(C)C(OS(=O)(=O)O)C(OC5OC(C)C(OC6OC(C)C(OS(=O)(=O)O)C(OC7OC(C)C(OC8OC(C)C(OS(=O)(=O)O)C(OC9OC(C)C(OS(=O)(=O)O)C(OS(=O)(=O)O)C9O)C8O)C(OS(=O)(=O)O)C7O)C6O)C(OS(=O)(=O)O)C5O)C4O)C(OS(=O)(=O)O)C3O)C2O)C(OS(=O)(=O)O)C1O` (centres unmarked), the APTT prolongation was 1.3 fold (human plasma; 128 µg/mL; baseline: control).
`CCC(=O)N(CC#N)S(=O)(=O)c1ccc(C)cc1` — result for “pseudo-first-order rate constant”: 50 h⁻¹ (HPLC-MS; pH 10.2, with: 50 mM N-α-acetyl-lysine).
The inhibition of `Cc1cc2cc(C(=O)N(Cc3ccc(C(F)(F)F)cn3)[C@H](C)c3ncccn3)ccc2nc1N` is reported as 89% (ELISA, measured: SDMA; mouse, HCT-116 MTAP-deleted xenograft, tumour; oral, 100 mg/kg once daily, 11 doses, 4 h after last dose; baseline: vehicle).
For `COc1cc(C2NCCc3cc(O)c(O)cc32)cc(OC)c1OC` (centres unmarked), the Fe2+ chelation was 92.85 ± 0.36% (ferrozine; cell-free; 100 µM, DMSO solvent).
For `COC1OC(C)C(O)C(OC2OC(C)C(O)C(OC3OC(C)C(O)C(OC4OC(C)C(O)C(OC5OC(C)C(O)C(OC6OC(C)C(O)C(OC7OC(C)C(O)C(OS(=O)(=O)O)C7OS(=O)(=O)O)C6OS(=O)(=O)O)C5OS(=O)(=O)O)C4OS(=O)(=O)O)C3OS(=O)(=O)O)C2OS(=O)(=O)O)C1OS(=O)(=O)O` (centres unmarked), the APTT prolongation was 1.3 fold (human plasma; 128 µg/mL; baseline: control).
`CC(=O)[O-].O.O.O.O.[Mn+2].[O-]c1ccc(Br)cc1C=NCCN1CCOCC1` gave an inhibition of 39.3% (superoxide scavenging; 200 µM).
`COc1cc2c(NC3CCN(C(C)C)CC3)cc(N3CCOCC3)nc2cc1OCCCN1CCCC1` — result for “log2 fold change”: 0.249 (TMT proteomics, measured: SCG2; 5xFAD mouse, hippocampus; dose not given; baseline: untreated 5xFAD).
For `COC1OC(C)C(OC2OC(C)C(OS(=O)(=O)O)C(OC3OC(C)C(OC4OC(C)C(OS(=O)(=O)O)C(OC5OC(C)C(OS(=O)(=O)O)C(OS(=O)(=O)O)C5O)C4O)C(OS(=O)(=O)O)C3O)C2O)C(OS(=O)(=O)O)C1O` (centres unmarked), the APTT prolongation was 1.1 fold (human plasma; 128 µg/mL; baseline: control).
`COC1CN([C@H]2CC[C@H]([C@@]3(C)Oc4c(Cl)cc(C(=O)NCc5c(SC)cc(C)[nH]c5=O)c(C)c4O3)CC2)C1` — result for “log2 fold change”: 1.13 (RNA-seq, measured: ARHGEF17 mouse homolog; mouse, HT-1376 xenograft, whole blood; dose not given; baseline: vehicle).
`COC1OC(C)C(O)C(OC2OC(C)C(O)C(OC3OC(C)C(O)C(OS(=O)(=O)O)C3OS(=O)(=O)O)C2OS(=O)(=O)O)C1OS(=O)(=O)O` (centres unmarked) has an APTT prolongation of 1.1 fold (human plasma; 128 µg/mL; baseline: control).
`CCCCCCCCCCCCCCCC(=O)NCCCC[C@H](N)C(=O)N[C@@H](CC(=O)O)C(=O)N[C@H](C(=O)N[C@@H](Cc1c[nH]cn1)C(=O)N[C@@H](Cc1ccccc1)C(=O)N[C@@H](CCCNC(=N)N)C(=O)N[C@H](C(=O)N[C@@H](Cc1ccccc1)C(=O)N[C@@H](CCCNC(=N)N)C(=O)N[C@@H](CO)C(=O)N[C@@H](Cc1c[nH]cn1)C(=O)N[C@@H](CO)C(=O)N[C@@H](CC(=O)O)C(=O)N[C@@H](Cc1ccc(O)cc1)C(=O)N[C@@H](CCCNC(=N)N)C(=O)N[C@@H](CCCNC(=N)N)C(=O)N[C@H](C(=O)O)[C@@H](C)CC)[C@@H](C)O)[C@@H](C)O` has a blood glucose of 92.5 ± 8.2 mg/dL (C57BL/6J mice, MCD diet-fed; dose not given, 3 weeks, NASH model).

A few entries again:
`COc1ccc(NC(=O)c2ccc3[nH]c(-c4ccc(N(C)C)cc4)nc3c2)cn1` has a tumour volume of 393 mm3 and 406 mm3 and 528 mm3 and 321 mm3 (Lewis lung carcinoma, mice, syngeneic graft, subcutaneous; intraperitoneal, 50 mg/kg daily, day 10).
`COCCOCCOCCNC(=O)Cc1cc(CC(=O)N[C@H]2C[C@H]3C(=O)Nc4cc(OCCOCCOCCOC)cc(n4)C(=O)N4CCC[C@H]4C(=O)Nc4cc(OCCOCCOCCOC)cc(n4)C(=O)N4CCC[C@H]4C(=O)Nc4cc(OCCOCCOCCOC)cc(n4)C(=O)N3C2)cc(CC(=O)N[C@H]2C[C@H]3C(=O)Nc4cc(OCCOCCOCCOC)cc(n4)C(=O)N4CCC[C@H]4C(=O)Nc4cc(OCCOCCOCCOC)cc(n4)C(=O)N4CCC[C@H]4C(=O)Nc4cc(OCCOCCOCCOC)cc(n4)C(=O)N3C2)c1` gave a ΔG of -27.6 ± 0.1 kJ/mol (anion binding, ITC; water/methanol 70 vol% (84.0 mol%); 298 K, with: sodium sulfate).
The amount of `COc1cc(O)ccc1CCC(c1ccc(O)cc1)c1cc2c(c(C)c1O)OC(c1ccc(O)cc1)CC2` (mixture of isomers) is reported as 598 ± 167 pg/mL blood (measured: 17-HDHA; human whole blood; 30 µM, with: Escherichia coli).
